Measured values of several laboratories.
Compare with care: the assays were run in different laboratories. “And” joins repeats or separate records; there may be more than shown.
Cell line: SK-MEL-2

SMILES	assay	conditions	scale	endpoint	value
CC(C)(N)c1cc(C(=O)N[C@@H]2CCc3ccc(Oc4ccnc5c4CCC(=O)N5)cc3C2)cc(C(F)(F)F)c1	ERK phosphorylation, inhibitor, Western blot, item: p-ERK/total ERK	1 h		IC50	3.8 µM
CCCCN1CCN(c2ccc3nc(-c4ccc5nc(-c6cc(OC)ccc6OC)[nH]c5c4)[nH]c3c2)CC1	SRB	10 µM, 48 h		growth percent	111%
Cc1n[nH]c2nc(-c3ccc(Cl)cc3)c3c(NC(=O)c4ccccc4)nnc-3n12	SRB	10 µM, NCI60 single-dose screen	baseline: untreated	cell growth	115%
COC(=O)N[C@@H](C)CNc1nccc(-c2cn(C(C)C)nc2-c2cc(Cl)cc(NS(C)(=O)=O)c2F)n1	ERK phosphorylation, activator, Western blot, item: p-ERK/total ERK	1 h, concentration for 200% induction		EC200	11 nM
C#C[C@@]1(O)[C@@H](CO)O[C@@H](n2cc(Cl)c3c(N)ncnc32)[C@@H]1O	SRB	NCI-60 screen		TGI	268 nM and 481 nM
CCCN1CCN(c2ccc3[nH]c(-c4ccc5[nH]c(-c6ccc(C(F)(F)F)cc6)nc5c4)nc3c2)CC1	SRB	10 µM, 48 h		growth percent	7.45%
CSc1nc(-c2ccc(Cl)cc2)c2c(NC(=O)c3ccccc3)nnc-2[nH]1	SRB	10 µM, NCI60 single-dose screen	baseline: untreated	cell growth	107%
COc1ccc(OC)c(-c2nc3ccc(-c4nc5ccc(N6CCN(C)CC6)cc5[nH]4)cc3[nH]2)c1	SRB	10 µM, 48 h		growth percent	109%
NNc1nc(-c2ccc(Cl)cc2)c2c(NC(=O)c3ccccc3)nnc-2[nH]1	SRB	10 µM, NCI60 single-dose screen	baseline: untreated	cell growth	115%
CCCN1CCN(c2ccc3[nH]c(-c4ccc5[nH]c(-c6cc(OC)c(OC)c(OC)c6)nc5c4)nc3c2)CC1	SRB	10 µM, 48 h		growth percent	70.9%
Cn1cncc1C1=CN(c2ncnc3[nH]cnc23)CCS1		melanoma cell line		TGI	43700 nM
O=C(Nc1nnc2n3c(nc(-c4ccc(Cl)cc4)c1-2)SCC3=O)c1ccccc1	SRB	10 µM, NCI60 single-dose screen	baseline: untreated	cell growth	105%
N#Cc1c(Oc2ccc(F)c(NC(=O)Cc3cccc(C(F)(F)F)c3)c2)ccc2nc(NC(=O)C3CC3)sc12	ERK phosphorylation, inhibitor, Western blot, item: p-ERK/total ERK	1 h		IC50	3.31 µM
C#C[C@@]1(O)[C@@H](CO)O[C@@H](n2cc(Br)c3c(N)ncnc32)[C@@H]1O	SRB	NCI-60 screen		TGI	430 nM and 758 nM
O=C(Nc1nnc2n3c(=S)[nH][nH]c3nc(-c3ccc(Cl)cc3)c1-2)c1ccccc1	SRB	10 µM, NCI60 single-dose screen	baseline: untreated	cell growth	108%
CCCCN1CCN(c2ccc3[nH]c(-c4ccc5[nH]c(-c6ccc(OCC)cc6)nc5c4)nc3c2)CC1	SRB	10 µM, 48 h		growth percent	86.6%
S=C([S][Au-][P+](CCCCCC[P+]([Au-][S]C(=S)n1cccn1)(c1ccccc1)c1ccccc1)(c1ccccc1)c1ccccc1)n1cccn1	cell growth, NCI-60 screen	melanoma		log10 TGI	-5.09

Excerpt of the above:
SMILES	assay	conditions	scale	endpoint	value
N#Cc1c(Oc2ccc(F)c(NC(=O)Cc3cccc(C(F)(F)F)c3)c2)ccc2nc(NC(=O)C3CC3)sc12	ERK phosphorylation, inhibitor, Western blot, item: p-ERK/total ERK	1 h		IC50	3.31 µM
